Measurements pooled from the literature.
Parts stem from different laboratories: compare values within a part only.

Sample 1
Target: Fragile X messenger ribonucleoprotein 1, C-terminal low-complexity region (Fmr1, Mus musculus, UniProt P35922)
Method: RNA Bind-n-Seq
Molecule type: RNA
Matrix: in vitro
Concentration: 200 nM
Notes: whole 134-nt RNA, ends assumed
Added: 150 mM LiCl
Reference: input library
Reading: higher = stronger binding
All molecules: 7-deaza-guanosine replaces G
`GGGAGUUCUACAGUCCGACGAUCAAGUCCUGUGCUACACAUCGUAUGUACCGAAUCGGGAAAAGGGGAAAAGGAAAAGGGAAAGUAUUAUGUUACGCCGUUCGGAUCUGCACUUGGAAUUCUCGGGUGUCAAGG` gave a log2 enrichment of 0.11.
With `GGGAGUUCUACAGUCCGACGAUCAAGUCCUGUGCUACACAUCGUAUGUACCGAAUCGGAAAAAGGAAAAAGGAAAAAGGAAAGUAUUAUGUUACGCCGUUCGGAUCUGCACUUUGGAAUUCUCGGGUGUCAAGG` the log2 enrichment was -1.57.
The log2 enrichment of `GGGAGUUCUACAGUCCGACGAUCUCCUGUGCUACACAUCGUAUGUACCGAAUCGGGUUUUUUGGUUUUUUGGGUUUUUUGGGAAAGUAUUAUGUUACGCCGUUCGGAUCUGCAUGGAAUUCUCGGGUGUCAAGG` is reported as -0.782.
With `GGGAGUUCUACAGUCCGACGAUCACUGGACCAGAUUGUUGAAAAAGGAAGACCAGCUCCUGGCUUCCAUCAUGGCGAUGGACCGGGAAAUGCAGUUCAAGAAAUCAUGAUUCCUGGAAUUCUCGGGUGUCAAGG` the log2 enrichment was -2.03.
The log2 enrichment of `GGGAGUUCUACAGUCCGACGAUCCUCAAGUCCUGUGCUACACAUCGUAUGUACCGAAUCGGGGCCGGCCGGGGCCGGAAAGUAUUAUGUUACGCCGUUCGGAUCUGCACUUCCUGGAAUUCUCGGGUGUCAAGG` is reported as 0.84.
With `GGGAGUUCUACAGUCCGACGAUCCCUCAAGUCCUGUGCUACACAUCGUAUGUACCGAAUCGGGCGGGGCGGGGCGGAAAGUAUUAUGUUACGCCGUUCGGAUCUGCACUUCCAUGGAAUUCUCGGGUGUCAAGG` the log2 enrichment was -1.22.
For `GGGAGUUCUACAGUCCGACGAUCCUGUGCUACACAUCGUAUGUACCGAAUCAAACCCCCCCAAACCCCCCCAAACCCCCCCAAAAAAGUAUUAUGUUACGCCGUUCGGAUCUGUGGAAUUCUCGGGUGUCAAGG`, the log2 enrichment was 0.82.
For `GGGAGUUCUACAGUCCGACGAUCUAACUUUAGAGGAGGAUCUGAUUGAUAUGGCAGUGGACGUGGAUUUGGGGAUGGCUAUAAUGGGUAUGGAGGAGGACCUGGAGGUGGCAAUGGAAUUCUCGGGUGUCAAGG`, the log2 enrichment was 0.15.
The log2 enrichment of `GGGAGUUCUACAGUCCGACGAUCAAGUCCUGUGCUACACAUCGUAUGUACCGAAUCGGGAGGGAAAGGGUUUUUUUGGGAAAGUAUUAUGUUACGCCGUUCGGAUCUGCACUUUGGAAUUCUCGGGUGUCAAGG` is reported as -1.39.
The log2 enrichment of `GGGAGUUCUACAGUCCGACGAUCCCUCAAGUCCUGUGCUACACAUCGUAUGUACCGAAUCGGAAAAAGGUGGUGGAAAGUAUUAUGUUACGCCGUUCGGAUCUGCACUUCCAGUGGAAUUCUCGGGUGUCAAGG` is reported as -0.0561.
`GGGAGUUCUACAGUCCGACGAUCUCAAGUCCUGUGCUACACAUCGUAUGUACCGAAUCGGGCCGGGCCGGGCCGGGGAAAGUAUUAUGUUACGCCGUUCGGAUCUGCACUUCCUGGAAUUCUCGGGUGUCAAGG` has a log2 enrichment of 0.587.

Sample 2
Target: Histone acetyltransferase KAT6A, winged helix 2, GST fusion (KAT6A, Homo sapiens, UniProt Q92794, residues 85-181)
Method: protein binding microarray
Molecule type: double-stranded DNA, one strand shown
Matrix: in vitro
Concentration: not given
Notes: 8-mer, flanks averaged, mean of 2 arrays, mostly near background
Reference: not given
Reading: higher = stronger binding
Residues (chain): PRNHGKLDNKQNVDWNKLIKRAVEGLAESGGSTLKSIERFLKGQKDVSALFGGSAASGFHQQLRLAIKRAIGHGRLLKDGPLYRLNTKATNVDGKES
`GCACCGGC` has an E-score of 0.087.
`GAGAGCCA` has an E-score of 0.14.
The E-score of `GTATAGCA` is reported as 0.113.
With `ACGCGGGC` the E-score was 0.192.
The E-score of `CATTGAGG` is reported as -0.0975.
For `CAACTACG`, the E-score was -0.114.
With `CTTCAACC` the E-score was -0.0442.
With `GGTCCAAA` the E-score was -0.0164.
`CTATTCAC` has an E-score of -0.0814.
With `GGCTATAA` the E-score was -0.0918.
`CAGGACGC` gave an E-score of 0.0828.
The E-score of `AACCTTAA` is reported as 0.0114.
With `CTTGCCGA` the E-score was 0.179.
With `ACGGCCGG` the E-score was 0.181.
For `GAGGTGCC`, the E-score was 0.0576.
For `CCCCAGTC`, the E-score was -0.208.
`AAACACAC` gave an E-score of 0.114.
For `AAAGTAGG`, the E-score was -0.0822.
For `GTGTATGA`, the E-score was -0.0537.
With `ATCGTATG` the E-score was -0.101.
For `CCGACTAC`, the E-score was -0.0442.
`GACCGTGA` has an E-score of -0.121.
For `TTAATTAA`, the E-score was 0.0785.
`ACTGCAAT` gave an E-score of 0.07.
`AGGAACAT` has an E-score of -0.0764.

Sample 3
Target: Sox, HMG box (Pigoraptor chileana)
Method: Spec-seq
Molecule type: double-stranded DNA, one strand shown
Matrix: in vitro
Concentration: not given
Notes: whole probe, mean of replicates
Reference: not given
Reading: lower = stronger binding
All sequences stand within: GAGTCGTCTCGTCAGCAC … CCGTAGAGCACTCAGGTC
Construct (chain): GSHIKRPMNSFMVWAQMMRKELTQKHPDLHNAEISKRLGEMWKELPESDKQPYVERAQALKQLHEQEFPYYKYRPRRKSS
For `CATGCTG`, “relative binding energy” read 0.658 ln ratio.
`CCTTGTT` — result for “relative binding energy”: -2.2 ln ratio.
`CATCACA`: “relative binding energy” -0.0412 ln ratio.
For `AGTCGTT`, “relative binding energy” read -0.748 ln ratio.
`CATATGA`: “relative binding energy” 0.188 ln ratio.
`AGTGGTT`: “relative binding energy” -0.791 ln ratio.
Under “relative binding energy”, `CATAGCC` is recorded as -0.0375 ln ratio.
For `ATGTGTT`, “relative binding energy” read -0.557 ln ratio.
For `CATATGC`, “relative binding energy” read 0.189 ln ratio.
For `CCGCGTT`, “relative binding energy” read 1.32 ln ratio.
Under “relative binding energy”, `GGGAGTT` is recorded as 1.47 ln ratio.
For `CCATGTT`, “relative binding energy” read -0.257 ln ratio.
`TGGGGTT`: “relative binding energy” 0.685 ln ratio.
`CATTTAA` — result for “relative binding energy”: 0.0363 ln ratio.
`TCCTGTT`: “relative binding energy” -0.579 ln ratio.
For `CATGGGT`, “relative binding energy” read 0.732 ln ratio.
Under “relative binding energy”, `CCTAGTT` is recorded as 0.0117 ln ratio.
For `CATTACA`, “relative binding energy” read -0.103 ln ratio.
`GACGGTT` — result for “relative binding energy”: 1.09 ln ratio.
`TTATGTT` — result for “relative binding energy”: -1.51 ln ratio.
Under “relative binding energy”, `CGACGTT` is recorded as 1.35 ln ratio.

Sample 4
Target: RNA binding protein fox-1 homolog 2, RRM domain, GST-SBP tag (RBFOX2, Homo sapiens, UniProt O43251-10, residues 100-194)
Method: RNA Bind-n-Seq
Molecule type: RNA
Matrix: in vitro
Concentration: 365 nM
Notes: natural RNA segment, single round, ends assumed
Reference: no-protein control
Reading: higher = stronger binding
Construct (chain): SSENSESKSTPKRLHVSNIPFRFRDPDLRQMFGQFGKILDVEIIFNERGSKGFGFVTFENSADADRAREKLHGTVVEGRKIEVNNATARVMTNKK
Under “RBNS enrichment (R)”, `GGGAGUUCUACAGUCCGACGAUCUACUCUCAGAGAAGCCUUAAAGCAUCCUUUCUUUGACCUUCUGAAGAAAAGUAUAUAGAUCUGUAAUUGGACAGCUCUCUCGAAGAGAUCUUACAGACUGUAUCAGUCUAUGGAAUUCUCGGGUGCCAA` is recorded as 0.265.
`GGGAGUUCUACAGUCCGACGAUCCUAUUCUGGCAAAGGCUGAGGUGGGUCAAGAGGGUGAGGCUGGCCAGUUUGAUGGAGAAAAAGUCAAAGACGGACAGUGUGUUAAAGAACUGGAGGUGCCUGUGCACACUUGGAAUUCUCGGGUGCCAA` — result for “RBNS enrichment (R)”: 0.543.
`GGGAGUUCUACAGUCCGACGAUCGCCCAACCUUAGGAAUAUAGUGCCCCAAAAGGCGGAUGCUUCUUCCAUUAUCUUAUUUUCUUUGAUACUUUAUUUAAUUAGAUGUUUAUAAAGAAAUGGGUUUAUUUUUCUGGAAUUCUCGGGUGCCAA`: “RBNS enrichment (R)” 0.446.
`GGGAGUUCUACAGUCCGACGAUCUGUAUACUGCUUGUGUUUGGGUUGAAGCACUACCUGACAUUAAAGGAAGGACUUGGAGAGAGAAUGCAUUUGCUGUGUCCAUCUCUUGAGUUGCGAUUACCCAGUAUCCUUGGAAUUCUCGGGUGCCAA` — result for “RBNS enrichment (R)”: 0.449.
`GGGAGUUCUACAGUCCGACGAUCUUUCCAGAAAUUUGUGGCCUUUUAGGCGGGAGUUAGGCGACCAAACCAGUGAGAGCCCCAAUCCCUGCAGUUUUGUGGCUUCAAGUGUGGGUGGACAGUCCUAAUGGGGAUGGAAUUCUCGGGUGCCAA`: “RBNS enrichment (R)” 0.433.
`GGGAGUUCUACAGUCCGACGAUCACCCACGGGGUCACUUGAGGAAUCUGCCCCACUGCUUCUUGUGAGCAGAUCAGGACCCUUAGGAAAUGUGCAAAUGAGAUCCAACUCCAAUUCAACAAUCUGAGAGAGAAUGGAAUUCUCGGGUGCCAA` — result for “RBNS enrichment (R)”: 1.44.
Under “RBNS enrichment (R)”, `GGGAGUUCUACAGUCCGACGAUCGUUGUGAAGUGCAGGGCGGGAGGUGGGCGUGAGCUUUCUAUUUUGCGUUGUAGAAGAAGUGAGAUGUAGUAAGCUAAUUAACAGACUUUCUAGCAGUUCUUUUUGUGAUGUGGAAUUCUCGGGUGCCAA` is recorded as 0.577.
Under “RBNS enrichment (R)”, `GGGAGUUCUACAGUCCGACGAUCGGCCUGAGAAAGGGCCAUGCCAGGGCACAGUGCUGGGUUGCCACACAUGGGAGGGCAGCUUCUAGCCGGGUGCUUGGGGGAGGCGGGGCUCAGCCUCCUGCUGCCCUGCCUGGAAUUCUCGGGUGCCAA` is recorded as 0.343.
For `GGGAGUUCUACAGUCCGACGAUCCAUGGGAAUGGUUUUGAGGACCUGGAUGAGGAAGAAGGCGUGGCAUCCUCCUGGCUUCUUACAGAAGAACUGUUGCAGAGUUCACAGCACAGAUGGGCAGAGAUGGUCCCUGGAAUUCUCGGGUGCCAA`, “RBNS enrichment (R)” read 0.992.
`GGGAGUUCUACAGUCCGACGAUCUUAGCUAUUAGUUCUUUGUGUUGUCUUAUCAAAGUUUAAUGGAUACAGUUCCACAGUUGUUGAUGUGUUUGUGUGUAUAUUCGAUUUUUAUAAAGAUGGUAGUAAGUCAAUGGAAUUCUCGGGUGCCAA` — result for “RBNS enrichment (R)”: 0.794.
For `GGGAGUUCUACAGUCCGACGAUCAAGCUACUCACAGUGGCAAAUGCCUUUUAUCCUAGCACUCCUUAAGCAGAGGCAAACAGGUUUCUUGAGUUCAGGCCAGUCAGGUCUGCAUAAGGAGCUUUAGACCAGUCUGGAAUUCUCGGGUGCCAA`, “RBNS enrichment (R)” read 0.302.
For `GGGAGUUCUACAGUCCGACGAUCUGAGUAUUAGAGAGCUUGUCUUUCAAGGCAGGUUCCUGGGGCUUCAGGGCUAGGAGGGAGGAGCCUGCCCUUUUAACAGAACCCCAGUCACAUGCGGCUCAAGUCACUCAUGGAAUUCUCGGGUGCCAA`, “RBNS enrichment (R)” read 0.527.
